Measurements from different studies.
Each line is one published result; not all experiments were run side by side. Several values in a cell are separate wells, animals, samples, runs or records.
Target: Serine/threonine-protein kinase MARK2 (MARK2, Homo sapiens, UniProt Q7KZI7)

CCn1cc(C(=O)O)c(=O)c2c(N)c(F)c(NC3CCCCC3)cc21
inhibition (kinase activity; 0.1 µM, together with: ATP at Km): -1.7%

CNC1C[S+]2CC[S+]3CC[S+](C1)[Ru-4]321([N]=C=S)[n]2c3ccc(OC)cc3c3c4c(c5cc(F)c[n+]1c5c32)C(=O)NC4=O (stereo not drawn)
remaining binding (KinomeScan; 0.1 µM; reference: untreated): 38%

Cc1ccc(-c2c(/C=C(\C#N)C(=O)NC(C)C)n(CCCO)c3ncnc(N)c23)cc1
remaining binding (cell-free assay, competition with immobilised ligand; 1 µM): 77%

COc1cc(Nc2nccc(-c3cnn4nc(OC)ccc34)n2)cc(C(F)(F)F)c1
remaining binding (binding, competition with immobilised ligand; 1 µM): 100%

COCC12C(=O)NC3C4(C(OC)CC1O)C1CC5(O)C(OC)C(O)C(OC(C)=O)(C1C5OC(=O)c1ccccc1)C3(O)C(OC)C24 (stereo not drawn)
remaining activity (kinase activity, inhibitor, ProQinase kinase profiling; 25 µM; reference: control): 93% and 87%

COc1ccc(NC(=O)Nc2ccc3c(c2)C(=O)N(C(C)CO)CC(C)C(CN(C)Cc2ccc4c(c2)OCO4)O3)cc1 (stereo not drawn)
remaining activity (kinase activity; 0.03 µM; reference: control): 89%

C=CC(=O)N1CCc2ccc(-n3c(=O)ccc4cnc5ccc(-c6cnn(C)c6)cc5c43)cc21
remaining binding (KINOMEscan; 1 µM; reference: DMSO control): 87%

Cc1cccc(O[C@H]2CCC[C@@H](C(C)CNCc3ccncc3)C2)c1 (relative stereo)
inhibition (enzyme activity, inhibitor; 1 µM): 0%

CNC(=O)C1CCN(c2cc(C)c(F)cc2NC(=O)c2ccc(-c3cc(O)ccc3C)c(C)c2)CC1
remaining binding (binding, competition with immobilised ligand; 1 µM): 91%

CN1CCN(Cc2ccc(-c3ccc(CO[C@H]4CCC[C@@H]4NC(=O)c4cc(-c5cnn(C)c5)cnc4N)cc3)cc2)CC1
inhibition (enzyme activity, inhibitor; 0.1 µM): 3%

Nc1ncc(-c2cc(-c3cnn(CC(F)(F)F)c3)ncc2F)nc1C(=O)NC1CNCC(F)C1 (stereo not drawn)
remaining activity (enzyme activity; 1 µM; reference: DMSO control): 98.9%

COc1c(Cl)cccc1Nc1c(-c2ccncc2C#C[C@@]2(C)CCCN2C(=O)/C=C/CN(C)C)[nH]c2c1C(=O)NCC2
remaining binding (binding, competition with immobilised ligand; 3 µM): 76%

C=CC(=O)Nc1cccc(-c2cnc3[nH]cc(C(=O)NC(C)(C)C)c3n2)c1
inhibition (enzyme activity, inhibitor; 0.1 µM): 42%

CC(C)=CC1OC(C)(C)C2C=C3C(=O)C(Cl)=CC(O)C3C3C(O)C4OC4C(=O)C132 (stereo not drawn)
remaining binding (cell-free assay, competition with immobilised ligand; 10 µM): 90%

NC(=O)[C@@H](O)C[C@H]1CCc2sc3ncnc(O[C@H]4CC[C@H](N5CCOCC5)CC4)c3c21
inhibition (enzyme activity, inhibitor; 10 µM): 2%
